Published values pooled from the literature.
“And” joins repeats or separate records; there may be more than shown. ± marks the error that the study gave.
IDE: Insulin-degrading enzyme (IDE, Homo sapiens, UniProt P14735)

| SMILES | tested on | test | test system | setting | how to read | endpoint | value |
| --- | --- | --- | --- | --- | --- | --- | --- |
| O=C(CCCN1C(=O)c2cccc3cccc(c23)C1=O)NO | HBL-1 | – | – | 0.5 µM, 120 h | – | viability | 117% |
| Cn1c(Nc2nc3ccc(C(F)(F)F)cc3s2)nc2cc(C(=O)NCCOCCO)ccc21 | SH-SY5Y | RNA-seq, measured: SH3TC1 mRNA | – | 5 µM, 5 h | baseline: untreated cells | fold change | 2.1 |
| CCCCc1nc(Cl)c(CO)n1Cc1ccc(-c2ccccc2-c2nn[nH]n2)cc1 | human PBMC | RNA-seq, measured: CCR2 mRNA | – | 10 µg/mL, 24 h | baseline: untreated control | log2 fold change | -1.58 |
| O=C(Nc1ccc(Cl)cc1)c1ccccc1NCc1ccncc1 | HeLa expressing Ub(G76V)-GFP | Ub(G76V)-GFP degradation, cycloheximide chase | – | 12 µM | – | inhibition | 35% |
| Clc1ccc(N/N=C(\c2ccccc2)c2ccccn2)nc1 | CD326+ cells | annexin V flow cytometry | – | 0.25 µM, 72 h | – | apoptotic cells | ~90% |
| Oc1cc(O)cc(/C=C/c2ccc(O)c(O)c2)c1 | HBL-1 | – | – | 1 µM, 120 h | – | viability | 103% |
| CC(=O)c1ccc(N2CCOCC2)cc1O | HeLa expressing Ub(G76V)-GFP | Ub(G76V)-GFP degradation, inhibitor, cycloheximide chase | – | 12 µM | – | inhibition | -7% |
| C=CC(=O)N1CCCN(C(=O)c2cc(Sc3cnc(NC(=O)C4CC4)s3)c(C)cc2OC)C[C@H]1C | human naive CD4 T cells | IFNγ or IL-4, intracellular cytokine staining | – | 10 µM | – | cytokine production | inhibited |
| CCn1cc(-c2cc(Cn3ccnc3)cc3c2CCN([C@H](c2cc(OC)ccn2)C2CC2)C3=O)c(C(F)(F)F)n1 | SU-DHL-5 | cell growth, inhibitor | – | 120 h | – | EC50 | 13.3 nM |
| COC(=O)[C@]12CCC(C)(C)C[C@H]1[C@H]1C(=O)C=C3[C@@]4(C)C=C(C#N)C(=O)C(C)(C)[C@@H]4CC[C@@]3(C)[C@]1(C)CC2 | HepG2 | high content imaging, measured: DNA structure | – | 6 h, distribution mode 1 | – | point of departure | 0.038 µM |
| Cc1ccccc1-c1ccc([C@H]2[C@H](CO)N3C(=O)CN(C(=O)Nc4cccc(F)c4)C[C@@H]23)cc1 | IDE | enzyme activity, inhibitor, fluorogenic kinetic | – | added: Mca-RPPGFSAFK(Dnp)-OH substrate | – | EC50 | 4000 nM |
| COc1ccc(-n2nc(C(C)=O)s/c2=N\N=C(/C)c2ccc(NC(=O)c3ccc(C)cc3)cc2)cc1 | MCF7 | – | – | 1.25 µM | – | toxicity | 95.2% |
| Cc1ccccc1-c1ccc([C@@H]2[C@@H](CO)N3CCCCN(S(=O)(=O)c4ccccc4C)C[C@@H]23)cc1 | IDE | enzyme activity, inhibitor, fluorescence kinetic | – | added: Mca-RPPGFSAFK(Dnp)-OH substrate | – | EC50 | 32 nM |
| COc1ccc(C(=O)Nc2sc3c(c2C(N)=O)CCCC3)cc1OC | HeLa expressing Ub(G76V)-GFP | Ub(G76V)-GFP degradation, inhibitor, cycloheximide chase | – | 12 µM | – | inhibition | 28% |
| Oc1cc(O)c2cc(O)c(-c3cc(O)c(O)c(O)c3)[o+]c2c1 | HBL-1 | – | – | 0.5 µM, 120 h | – | viability | 130% |
| Cc1nn(-c2nc3c(F)cc(F)cc3s2)c(O)c1C(c1ccc(C(F)(F)F)cc1)c1c(C)nn(-c2nc3c(F)cc(F)cc3s2)c1O | THP1-Dual | IFN luciferase reporter | – | 2.5 µM, added: HT-DNA | – | inhibition | 3.42% and -7.11% and 1.2% and -6.07% and 5.66% and 0.104% |
| COc1cccc2c1C(=O)c1c(O)c3c(c(O)c1C2=O)C[C@@](O)(C(=O)CO)C[C@@H]3O[C@H]1C[C@H](N)[C@@H](O)[C@H](C)O1 | BT-12 | cell viability, MTT | – | 10 µM, 72 h | – | inhibition | 93.8% |
| C=CCn1c(=O)c2cnc(Nc3ccc(N4CCN(C)CC4)cc3)nc2n1-c1ccc2c(n1)[C@@](O)(CC)CC2 | NCI-H1048 | flow cytometry | – | concentration not given | – | EdU-negative S phase mitotic cells | 1.37% |
| C#CCCC(=O)SCCNC(=O)CCNC(=O)[C@H](O)C(C)(C)COP(=O)(O)OP(=O)(O)OC[C@H]1O[C@@H](n2cnc3c(N)ncnc32)[C@H](O)[C@@H]1OP(=O)(O)O | HBL-1 | – | – | 1 µM, 120 h | – | viability | 106% |
| COc1cc(/C=C/C(=O)N2CCC=CC2=O)cc(OC)c1OC | MDA-MB-468 | qRT-PCR, measured: GPX4 | – | 30 µM, 6 h | baseline: time zero | mRNA level | 99.6 ± 12.2% |

| SMILES | tested on | test | test system | setting | how to read | endpoint | value |
| --- | --- | --- | --- | --- | --- | --- | --- |
| COc1cc2ncnc(Nc3ccc(Oc4ccccc4)cc3C)c2cc1OC.O=C(O)C(F)(F)F | NCI-H2087 (BRAF L597V) | – | – | 3 µM, added: trametinib 0 nM | – | fractional effect | 22% |
| CC(C)C[C@@H](C=O)NC(=O)[C@H](CC(C)C)NC(=O)[C@H](CC(C)C)NC(=O)OCc1ccccc1 | HeLa expressing Ub(G76V)-GFP | Ub(G76V)-GFP degradation, cycloheximide chase | – | 0.01 µM | baseline: DMSO | remaining activity | 81% |
| CC1(C)CN(CCCCC(=O)N[C@@H](CCC(=O)O)C(=O)N[C@@H](CCC(=O)O)C(=O)N[C@H](CCCCNC(=O)CCCCCCC(=O)NCCCC[C@H](NC(=O)N[C@@H](CCC(=O)O)C(=O)O)C(=O)O)C(=O)O)CC[N]2CC(C)(C)[S][Tc]2(=[O])[S]1 (stereo partly drawn) [technetium-99m labelled] | LNCaP | – | – | 25 nM, 1 h, 37 °C | – | surface-bound activity | 3.7 ± 1.11 %AD/mg protein |
| Cc1[nH]c(C)c(-c2ccc(-c3ccc(OC(F)(F)F)cc3)cc2)c(=O)c1Cl | Plasmodium yoelii | – | 17XL | 384-well | – | IC50 | 137 ± 20 nM |
| C=C(C)[C@@H](CC=C(C)C)C[C@@]12C[C@@H](CC=C(C)C)C(C)(C)[C@@](CC=C(C)C)(C(=O)C(C(=O)c3ccc(O)c(O)c3)=C1O)C2=O | HBL-1 | – | – | 0.5 µM, 120 h | – | viability | 76.2% |
| Cl.Cl.N=C(NCCCCCCNC(=N)NC(=N)Nc1ccc(Cl)cc1)NC(=N)Nc1ccc(Cl)cc1 | BT-12 | cell viability, MTT | – | 10 µM, 72 h | – | inhibition | 95.4% |
| CCS(=O)(=O)c1nc(C2CC2)cc(C(F)(F)F)n1 | HeLa Kyoto | RelA nuclear import, high content imaging | – | 15.82 µM, 3 h, added: 1 µM PMA, 60 min | – | cells with nuclear RelA | 7.82% and 8.24% |
| O=C(CC1NCCCC1O)Cn1cnc2cc(Br)c(Cl)cc2c1=O (stereo not drawn) | BT-12 | cell viability, MTT | – | 10 µM, 72 h | – | inhibition | 93% |
| CCn1cc(-c2cc(Cn3ccoc3=N)cc3c2CCN([C@@H](C)c2cc(OC)ccn2)C3=O)c(C(F)(F)F)n1 | G-402 | cell growth, inhibitor | – | 120 h | – | EC50 | 38.6 nM |
| Clc1nc(NCc2ccco2)c2[nH]cnc2n1 | iPSC-derived cardiomyocytes | RNA-seq, measured: chr2 exon ending 89580635 | – | unit not given | baseline: DMSO minus compound | ΔPSI | 0.211 |
| C[C@H]1O[C@@H](O[C@H]2[C@@H](O)C[C@H](O[C@H]3[C@@H](O)C[C@H](O[C@H]4CC[C@@]5(C)[C@H](CC[C@@H]6[C@@H]5C[C@@H](O)[C@]5(C)[C@@H](C7=CC(=O)OC7)CC[C@]65O)C4)O[C@@H]3C)O[C@@H]2C)C[C@H](O)[C@@H]1O | BT-12 | cell viability, MTT | – | 10 µM, 72 h | – | inhibition | 93.9% |
| Cc1c(C(=O)O)ccc2c3n(nc12)[C@@H]1[C@H](C3)N(CC2CC2)[C@@]2(C(=O)Nc3cc(Cl)ccc32)[C@H]1c1cccc(Cl)c1F | SNU-719 | cell proliferation, alamarBlue | – | – | – | IC50 | 0.6 nM |
| CCCC(=O)Oc1ccc2[nH]c(C(=O)c3cc4ccccc4[nH]3)cc2c1 | HeLa expressing Ub(G76V)-GFP | Ub(G76V)-GFP degradation, inhibitor, cycloheximide chase | – | 12 µM | – | inhibition | 5% |
| CCC/N=C1\S/C(=C\c2ccc(OC[C@H](O)CO)c(Cl)c2)C(=O)N1c1ccccc1C | human primary astrocytes | single-cell RNA-seq, measured: SERPINE1 mRNA | – | concentration not given, 48 h, added: cytokine stimulation | baseline: cytokine alone | log2 fold change | 0.304 |
| CN(C)Cc1c(C(=O)NCCOc2ccc(C(=O)NO)cc2)oc2ccccc12 | BT-12 | cell viability, MTT | – | 10 µM, 72 h | – | inhibition | 90.6% |
| [Cl][64Cu][Cl] | BxPC-3 | – | – | 37 °C | – | internalized fraction | 20.6 ± 2.3% |
| O=C(CCCCCCC(=O)Nc1ccc(I)cc1)NO | HBL-1 | – | – | 1 µM, 120 h | – | viability | 0.509% |
| O=C(CCCc1ccc(-c2ccccc2F)cc1)Nc1ccc(O)cc1 | HeLa expressing Ub(G76V)-GFP | Ub(G76V)-GFP degradation, cycloheximide chase | – | 12 µM | – | inhibition | 30% |
| Cc1ccc(S(=O)(=O)N2CCCN(C(=O)c3cc(-c4ccccc4)n[nH]3)CC2)cc1 | Plasmodium yoelii | – | 17XL | 384-well | – | IC50 | 710 ± 231 nM |

A few entries again:
| SMILES | tested on | test | test system | setting | how to read | endpoint | value |
| --- | --- | --- | --- | --- | --- | --- | --- |
| Cn1c(Nc2nc3ccc(C(F)(F)F)cc3s2)nc2cc(C(=O)NCCOCCO)ccc21 | SH-SY5Y | RNA-seq, measured: SH3TC1 mRNA | – | 5 µM, 5 h | baseline: untreated cells | fold change | 2.1 |
| CCCCc1nc(Cl)c(CO)n1Cc1ccc(-c2ccccc2-c2nn[nH]n2)cc1 | human PBMC | RNA-seq, measured: CCR2 mRNA | – | 10 µg/mL, 24 h | baseline: untreated control | log2 fold change | -1.58 |
| O=C(Nc1ccc(Cl)cc1)c1ccccc1NCc1ccncc1 | HeLa expressing Ub(G76V)-GFP | Ub(G76V)-GFP degradation, cycloheximide chase | – | 12 µM | – | inhibition | 35% |
| Clc1ccc(N/N=C(\c2ccccc2)c2ccccn2)nc1 | CD326+ cells | annexin V flow cytometry | – | 0.25 µM, 72 h | – | apoptotic cells | ~90% |
